Measurements of several laboratories.
Every numbered part comes from another study and shows a few of its results, in no order. Positions count from the first letter of the parent shown.

Block 1 — method: RNA Bind-n-Seq; form: RNA; sample: in vitro; concentration: 1 µM; setting: whole 134-nt RNA, ends assumed; added: 150 mM KCl; relative to: input library; direction: higher = stronger binding
Target: Ras GTPase-activating protein-binding protein 1, C-terminal RGG region (G3BP1, Homo sapiens, UniProt Q13283)
Sequence of UniProt Q13283 (whole entry, looked up): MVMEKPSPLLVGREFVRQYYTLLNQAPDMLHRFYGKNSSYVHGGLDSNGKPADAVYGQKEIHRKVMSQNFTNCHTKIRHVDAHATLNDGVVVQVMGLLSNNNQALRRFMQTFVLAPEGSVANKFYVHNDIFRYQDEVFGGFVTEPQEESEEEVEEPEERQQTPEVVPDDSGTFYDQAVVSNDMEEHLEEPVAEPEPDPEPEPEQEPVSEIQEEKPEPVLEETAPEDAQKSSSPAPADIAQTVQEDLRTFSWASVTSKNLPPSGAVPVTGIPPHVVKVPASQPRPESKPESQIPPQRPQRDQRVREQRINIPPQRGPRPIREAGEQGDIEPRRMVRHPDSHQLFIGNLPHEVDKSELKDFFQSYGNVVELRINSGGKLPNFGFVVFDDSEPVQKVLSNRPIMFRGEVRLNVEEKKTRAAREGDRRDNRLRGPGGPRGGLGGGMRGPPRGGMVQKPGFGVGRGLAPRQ
Constant ends, left off below: GGGAGUUCUACAGUCCGACGAUC … UGGAAUUCUCGGGUGUCAAGG
Sequence	log2 enrichment
CCUCAAGUCCUGUGCUACACAUCGUAUGUACCGAAUCGGAGGAAAGGUUUGGAAAGUAUUAUGUUACGCCGUUCGGAUCUGCACUUCCAG	-0.989
ACCAUGCAGGUGGGCAUCUUUGGGAAGUGGGGCAAGGGGGGGAUAGGGAGGGGGGAAACACUUUGGGAACAGGUGGUCCCAGGUCGUUUC	-1.37
CACAGACAACACGCACCCACACAGACACAGAGGGAAGGGGUUGGGAUGGGCACAGGGUGCACAGCAGGGCGGGGUAGGACCCCAGCCCCU	-0.816
UGGCCCUGGUGGCAUGCAGGGAGGAAGAGGUGGCCUCAUGGAUCGUGGUGGUCCCGGUGGAAUGUUCAGAGGUGGCCGUGGUGGAGACAG	2.41
CCUCAAGUCCUGUGCUACACAUCGUAUGUACCGAAUCGGGCGGGGCGGGGCGGAAAGUAUUAUGUUACGCCGUUCGGAUCUGCACUUCCA	0.083
AGUCCUGUGCUACACAUCGUAUGUACCGAAUCGGGAGGGAAAAAAAGGGUUUUUGGGAAAGUAUUAUGUUACGCCGUUCGGAUCUGCACU	-0.186
GUCCUGUGCUACACAUCGUAUGUACCGAAUCGGGGUUUUUGGUUUUUGGGGUUUUUGGGAAAGUAUUAUGUUACGCCGUUCGGAUCUGCA	-0.953
GCAGGAAGUAAAAACAAAUGGAAAUGCCUCGGAUAGUGGCAGGGGUGGGGGUUGCUAAGGAAAGGGUGGGAUGGGAGUGGGUAAAGAGUU	1.61

Block 2 — method: RNA Bind-n-Seq; form: RNA; sample: in vitro; concentration: not given; relative to: input RNA pool; direction: higher = stronger binding
Target: RING finger protein unkempt homolog, zinc fingers 1-6, GST-SBP tag (UNK, Homo sapiens, UniProt Q9C0B0, residues 30-357)
Setting: RNA with constant flanks, human and mouse sites, ends assumed
Constant ends, left off below: GGGAGUUCUACAGUCCGACGAUC … CAACAGAGGAUUGAGCAUCA
Construct (chain): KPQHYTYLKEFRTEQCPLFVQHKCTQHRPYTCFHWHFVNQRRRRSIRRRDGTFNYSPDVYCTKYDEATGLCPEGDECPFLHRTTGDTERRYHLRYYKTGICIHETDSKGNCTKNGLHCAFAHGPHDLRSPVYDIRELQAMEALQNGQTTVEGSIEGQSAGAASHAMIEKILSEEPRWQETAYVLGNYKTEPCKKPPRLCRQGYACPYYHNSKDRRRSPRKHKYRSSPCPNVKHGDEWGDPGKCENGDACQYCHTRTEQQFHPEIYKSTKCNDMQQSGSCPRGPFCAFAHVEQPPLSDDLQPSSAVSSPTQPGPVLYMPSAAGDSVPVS
Sequence	bound/input enrichment [ratio]
UGAAACAGUCCUCUGAGACAUUAACUAUAAGACUGUGUUCUGUUUAUAAGUAUUUAUUUCUAAUGCCUCCAGGUAGGGCUGUAAGGUUCAUGUGGAGCUACCUUCUCCUAUCCCCCCUUC	0.572
GAUAUGUUUUAUAGGAAUUGGGCACUUAAGGAAAGCUUCAUAAAAGCCAUUGGUGUUGGACUAGGAUUUGAAUUGCAGCGGCUUGAAUUUGAUCUAUCUCCAUUAAACUUGGAUAUAGGC	1.03
UUAAAUACACGAAGUUACAUUUUUGUUCAUGUUUCAUUGUCCAGAAAGCAGCAGGAAACUAUUCAGUUGUGAUCAAGCAGGAAAAAAGAAACACCAACAGUUGCCAGUGUUUUUGCUUUU	0.17
UACGUGUGCCAGAGACUGGGUGUCAGCCAUAUCAUCACCGAGCCCAAAGAAGAGGCCAUUAGCACAAAUGAAGUCAUAAACCAGUUACUGCACCAUGUUGGCGCCAUGUGCAUUCACCAG	0.467
CUGGUAGACGACAAGCCUGGCCCUAGUCCGUUUUCUGAUCAGUCAGAACCCACAAUAACUACUAGUAGUCCUGUGGCUUUCAACCCAUUUCUCAUCCCAGGAGUGUCUCCUGGACUCAUC	0.158
GGCGGUCGGGCCGCACUCUCCGAGCCCAGAGCAGCGGAGAGACCGCGCGGCGGGGCUUGGGACGGGGACGCGGUGUCGGGGCCGAGGUGGGCCGAGAGCAGCCGCAGCCCCAGCGGCCGG	0.33
GGUUUUGGCGCUCAGAUACCUCCUCAGUGGCAGGUAUCACAUGAAUUUCCAAUGAACUUCAACCCAUCCAAUCCCUACUGCAAUGGAAUCCAAGGCAUUGUAGAGGCGUAUCGGUCUUGU	0.14
AUGGGCCGCCACUGUGGAUACCUGGCCCUUGUCACCUCUCUGUCCUGUGGGGCCGACUGGGUUUUUAUUCCUGAAUGUCCACCAGAUGACGACUGGGAGGAACACCUUUGUCGCCGACUC	0.0734

Block 3 — target: UBE2L3 UBC core domain (UniProt P68036); method: yeast two-hybrid; sample: yeast; setting: mostly zero background; relative to: not given; direction: higher = stronger interaction
Sequence of UniProt P68036 (whole entry, looked up): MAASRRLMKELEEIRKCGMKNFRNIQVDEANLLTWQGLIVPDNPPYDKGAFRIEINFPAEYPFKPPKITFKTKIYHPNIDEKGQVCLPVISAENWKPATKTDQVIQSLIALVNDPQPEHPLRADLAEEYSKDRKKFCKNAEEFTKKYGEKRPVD
B1: RNF130 RING domain (UniProt Q86XS8); chain DKETDPDFDHCAVCIESYKQNDVVRILPCKHVFHKSCVDPWLSEHCTCPMCKLNILKALGIV
B2: RNF115 RING domain (UniProt Q9Y4L5); chain TQEQVDMGLECPVCKEDYTVEEEVRQLPCNHFFHSSCIVPWLELHDTCPVCRKSLNGEDSTR
B3: RMND5B RING domain (UniProt Q96G75); chain MKCWYHSVFACPILRQQTSDSNPPIKLICGHVISRDALNKLINGGKLKCPYCPMEQNPADGK
B4: RNF32 RING domain (UniProt Q9H0A6); chain VQALRRETHECSICLAPLSAAGGQRVGAGRRSREMALLSCSHVFHHACLLALEEFSVGDRPPFHACPLCRSCYQKKILEC
Sequence	lacZ reporter activity
EIKDYKARLTCPCCNMRKKDAVLTKCFHVFCFECVKTRYDTRQRKCPKCNAAFGANDFHR (RNF20 RING domain (UniProt Q5VTR2))	0
B1 (RNF130 RING domain)	0
VPADASPDSKCPICLDRFDNVSYLDRCLHKFCFRCVQEWSKNKAECPLCKQPFDSIFHSV (TOPORS RING domain (UniProt Q9NS56))	0
B2 (RNF115 RING domain)	0
B3 (RMND5B RING domain)	0
B4 (RNF32 RING domain)	0

Block 4 — method: DHFR PCA, deep sequencing; sample: yeast; added: (+)-ABA 200 µM; relative to: wild-type fitted maximum; direction: higher = stronger binding
Target: ABI1, truncated, D143A, DHFR fusion (Arabidopsis thaliana)
Setting: methotrexate growth selection, single substitutions
Parent: PYL1, truncated, DHFR fusion (Arabidopsis thaliana); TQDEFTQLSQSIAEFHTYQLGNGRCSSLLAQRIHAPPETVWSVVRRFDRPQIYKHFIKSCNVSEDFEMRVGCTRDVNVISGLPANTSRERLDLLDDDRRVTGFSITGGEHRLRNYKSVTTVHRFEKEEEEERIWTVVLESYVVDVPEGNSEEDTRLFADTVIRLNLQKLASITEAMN; partner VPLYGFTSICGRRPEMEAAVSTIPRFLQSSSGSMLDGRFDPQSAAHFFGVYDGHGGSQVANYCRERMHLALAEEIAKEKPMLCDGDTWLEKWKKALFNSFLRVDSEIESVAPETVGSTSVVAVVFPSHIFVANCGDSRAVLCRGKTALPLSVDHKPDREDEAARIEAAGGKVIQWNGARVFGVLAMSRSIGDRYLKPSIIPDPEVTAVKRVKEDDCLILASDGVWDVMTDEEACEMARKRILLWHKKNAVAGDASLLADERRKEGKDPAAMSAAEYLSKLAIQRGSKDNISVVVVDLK
Variant	relative binding score
V78Y	57%
I33H	14.4%
Q51E	94.6%
V161M	75.6%
E125M	90.3%

Excerpt of the above (block 2):
Sequence	bound/input enrichment [ratio]
CUGGUAGACGACAAGCCUGGCCCUAGUCCGUUUUCUGAUCAGUCAGAACCCACAAUAACUACUAGUAGUCCUGUGGCUUUCAACCCAUUUCUCAUCCCAGGAGUGUCUCCUGGACUCAUC	0.158
GGUUUUGGCGCUCAGAUACCUCCUCAGUGGCAGGUAUCACAUGAAUUUCCAAUGAACUUCAACCCAUCCAAUCCCUACUGCAAUGGAAUCCAAGGCAUUGUAGAGGCGUAUCGGUCUUGU	0.14
UUAAAUACACGAAGUUACAUUUUUGUUCAUGUUUCAUUGUCCAGAAAGCAGCAGGAAACUAUUCAGUUGUGAUCAAGCAGGAAAAAAGAAACACCAACAGUUGCCAGUGUUUUUGCUUUU	0.17
